Experimental data collected from several papers.
Protocols differ between the studies behind these lines. Values joined by “and” are separate records of one study, mostly repeats; a detail may differ. ± marks the error that the study gave.
APP amyloid-beta peptide: Amyloid-beta precursor protein, amyloid-beta peptide (APP, Homo sapiens, UniProt P05067)

By UniProt entry, the sequences of proteins in these tests, tags left out. Residues count along the entry.
UniProt Q9NR97, 27-1041 limits assumed: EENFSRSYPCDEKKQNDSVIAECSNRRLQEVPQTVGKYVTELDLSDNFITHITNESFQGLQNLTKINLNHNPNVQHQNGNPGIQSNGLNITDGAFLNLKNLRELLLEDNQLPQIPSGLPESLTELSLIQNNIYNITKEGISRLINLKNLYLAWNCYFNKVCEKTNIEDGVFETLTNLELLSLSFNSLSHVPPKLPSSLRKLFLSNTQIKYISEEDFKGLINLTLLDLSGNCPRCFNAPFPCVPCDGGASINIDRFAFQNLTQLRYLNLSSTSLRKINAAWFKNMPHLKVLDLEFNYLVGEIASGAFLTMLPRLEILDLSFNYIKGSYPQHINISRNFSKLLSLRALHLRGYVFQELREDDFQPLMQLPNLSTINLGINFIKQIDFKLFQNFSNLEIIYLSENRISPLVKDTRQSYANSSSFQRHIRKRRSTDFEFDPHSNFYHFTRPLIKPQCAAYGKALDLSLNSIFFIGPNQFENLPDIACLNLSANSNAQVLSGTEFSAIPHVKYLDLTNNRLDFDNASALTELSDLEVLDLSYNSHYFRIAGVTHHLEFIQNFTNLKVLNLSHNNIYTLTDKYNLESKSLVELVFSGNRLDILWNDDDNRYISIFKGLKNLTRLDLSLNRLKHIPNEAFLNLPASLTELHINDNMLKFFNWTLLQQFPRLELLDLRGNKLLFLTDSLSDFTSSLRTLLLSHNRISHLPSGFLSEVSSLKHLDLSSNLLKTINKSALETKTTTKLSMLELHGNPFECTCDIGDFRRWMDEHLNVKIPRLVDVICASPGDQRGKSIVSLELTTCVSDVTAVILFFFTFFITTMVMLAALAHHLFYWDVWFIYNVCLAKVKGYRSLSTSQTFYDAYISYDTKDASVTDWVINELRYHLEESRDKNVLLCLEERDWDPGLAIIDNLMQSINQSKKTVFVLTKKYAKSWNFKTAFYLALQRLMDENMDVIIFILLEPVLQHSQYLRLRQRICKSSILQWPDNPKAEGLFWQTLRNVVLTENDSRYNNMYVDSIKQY
UniProt P31421, 19-872 limits assumed: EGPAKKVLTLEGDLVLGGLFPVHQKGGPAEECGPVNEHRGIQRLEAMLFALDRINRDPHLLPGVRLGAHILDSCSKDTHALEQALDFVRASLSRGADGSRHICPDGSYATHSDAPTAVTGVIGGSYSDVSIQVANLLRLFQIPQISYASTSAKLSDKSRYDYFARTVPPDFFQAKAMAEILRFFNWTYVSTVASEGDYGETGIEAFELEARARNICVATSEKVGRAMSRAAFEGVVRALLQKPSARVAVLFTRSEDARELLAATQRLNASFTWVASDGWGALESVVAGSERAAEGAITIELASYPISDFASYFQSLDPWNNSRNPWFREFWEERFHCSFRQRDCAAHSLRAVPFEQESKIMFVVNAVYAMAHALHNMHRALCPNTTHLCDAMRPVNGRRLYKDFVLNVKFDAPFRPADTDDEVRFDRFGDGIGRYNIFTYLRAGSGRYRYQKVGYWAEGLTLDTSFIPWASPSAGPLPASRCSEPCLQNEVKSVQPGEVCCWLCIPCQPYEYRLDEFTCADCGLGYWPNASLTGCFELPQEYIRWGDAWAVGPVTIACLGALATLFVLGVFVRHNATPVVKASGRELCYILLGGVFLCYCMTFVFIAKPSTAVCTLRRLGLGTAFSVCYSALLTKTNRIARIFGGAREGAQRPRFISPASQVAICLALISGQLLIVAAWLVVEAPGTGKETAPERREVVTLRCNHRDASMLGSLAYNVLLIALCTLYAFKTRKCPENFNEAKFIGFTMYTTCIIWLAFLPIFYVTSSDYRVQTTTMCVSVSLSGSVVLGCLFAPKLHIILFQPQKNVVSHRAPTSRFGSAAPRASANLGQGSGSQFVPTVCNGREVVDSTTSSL
UniProt P45983, 1-384 isoform 3: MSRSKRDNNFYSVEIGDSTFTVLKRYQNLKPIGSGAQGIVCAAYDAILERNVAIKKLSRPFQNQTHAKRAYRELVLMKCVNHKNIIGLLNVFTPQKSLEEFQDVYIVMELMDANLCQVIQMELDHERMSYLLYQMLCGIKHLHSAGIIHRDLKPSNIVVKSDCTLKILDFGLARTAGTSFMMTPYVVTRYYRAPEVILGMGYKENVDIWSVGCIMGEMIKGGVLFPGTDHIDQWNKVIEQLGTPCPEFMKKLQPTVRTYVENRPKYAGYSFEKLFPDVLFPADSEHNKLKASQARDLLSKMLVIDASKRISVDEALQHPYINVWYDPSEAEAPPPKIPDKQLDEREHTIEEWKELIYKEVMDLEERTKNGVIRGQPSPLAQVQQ
UniProt A4HTR0, 1-443: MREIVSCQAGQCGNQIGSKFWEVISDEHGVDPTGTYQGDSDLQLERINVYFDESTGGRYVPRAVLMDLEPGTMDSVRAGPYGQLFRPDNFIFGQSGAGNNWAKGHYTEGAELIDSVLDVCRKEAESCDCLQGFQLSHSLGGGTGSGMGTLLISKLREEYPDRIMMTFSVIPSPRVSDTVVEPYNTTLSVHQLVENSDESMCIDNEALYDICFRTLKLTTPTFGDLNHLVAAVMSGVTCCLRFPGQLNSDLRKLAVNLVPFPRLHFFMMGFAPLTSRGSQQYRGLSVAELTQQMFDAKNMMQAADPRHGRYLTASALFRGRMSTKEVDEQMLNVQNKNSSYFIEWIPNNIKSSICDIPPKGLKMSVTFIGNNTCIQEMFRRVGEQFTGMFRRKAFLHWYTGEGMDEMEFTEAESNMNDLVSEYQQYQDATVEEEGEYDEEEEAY
UniProt P49841, whole entry: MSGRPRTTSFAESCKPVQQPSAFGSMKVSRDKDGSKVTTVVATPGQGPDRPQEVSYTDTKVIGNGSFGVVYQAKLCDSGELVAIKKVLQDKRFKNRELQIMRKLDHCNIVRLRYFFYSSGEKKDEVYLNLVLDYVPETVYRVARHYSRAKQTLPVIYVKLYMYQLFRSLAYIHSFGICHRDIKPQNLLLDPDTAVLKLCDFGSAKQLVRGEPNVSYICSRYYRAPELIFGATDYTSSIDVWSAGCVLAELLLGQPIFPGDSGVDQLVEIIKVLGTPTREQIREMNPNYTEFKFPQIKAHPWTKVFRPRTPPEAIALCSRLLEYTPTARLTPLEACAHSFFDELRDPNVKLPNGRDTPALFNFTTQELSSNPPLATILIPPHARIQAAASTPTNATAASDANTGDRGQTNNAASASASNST
UniProt Q13304, whole entry: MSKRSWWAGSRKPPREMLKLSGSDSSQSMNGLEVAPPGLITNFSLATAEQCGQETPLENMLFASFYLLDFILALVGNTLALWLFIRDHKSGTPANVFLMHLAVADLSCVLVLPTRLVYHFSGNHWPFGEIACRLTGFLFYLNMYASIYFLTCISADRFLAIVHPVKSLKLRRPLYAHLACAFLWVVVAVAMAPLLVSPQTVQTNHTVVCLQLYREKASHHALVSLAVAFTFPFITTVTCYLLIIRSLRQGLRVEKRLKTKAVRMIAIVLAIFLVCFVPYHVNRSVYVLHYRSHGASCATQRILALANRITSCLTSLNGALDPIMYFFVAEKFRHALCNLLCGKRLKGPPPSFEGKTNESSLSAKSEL
UniProt P03372, whole entry: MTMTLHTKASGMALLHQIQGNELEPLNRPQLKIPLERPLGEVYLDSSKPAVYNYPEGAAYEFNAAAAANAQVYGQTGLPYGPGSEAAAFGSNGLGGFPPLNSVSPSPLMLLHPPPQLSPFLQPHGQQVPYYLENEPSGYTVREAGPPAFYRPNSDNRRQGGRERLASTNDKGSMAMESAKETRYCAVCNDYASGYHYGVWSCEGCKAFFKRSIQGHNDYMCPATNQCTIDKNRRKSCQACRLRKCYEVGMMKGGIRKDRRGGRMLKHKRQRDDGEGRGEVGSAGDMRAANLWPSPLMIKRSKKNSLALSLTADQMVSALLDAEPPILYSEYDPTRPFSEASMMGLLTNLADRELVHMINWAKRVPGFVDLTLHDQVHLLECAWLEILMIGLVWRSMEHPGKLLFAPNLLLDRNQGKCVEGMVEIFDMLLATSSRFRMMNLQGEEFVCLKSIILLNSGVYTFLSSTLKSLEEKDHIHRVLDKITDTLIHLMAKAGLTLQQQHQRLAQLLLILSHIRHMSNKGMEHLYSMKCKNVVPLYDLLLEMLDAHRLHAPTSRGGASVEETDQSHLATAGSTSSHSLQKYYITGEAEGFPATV
UniProt P25779, whole entry, looked up: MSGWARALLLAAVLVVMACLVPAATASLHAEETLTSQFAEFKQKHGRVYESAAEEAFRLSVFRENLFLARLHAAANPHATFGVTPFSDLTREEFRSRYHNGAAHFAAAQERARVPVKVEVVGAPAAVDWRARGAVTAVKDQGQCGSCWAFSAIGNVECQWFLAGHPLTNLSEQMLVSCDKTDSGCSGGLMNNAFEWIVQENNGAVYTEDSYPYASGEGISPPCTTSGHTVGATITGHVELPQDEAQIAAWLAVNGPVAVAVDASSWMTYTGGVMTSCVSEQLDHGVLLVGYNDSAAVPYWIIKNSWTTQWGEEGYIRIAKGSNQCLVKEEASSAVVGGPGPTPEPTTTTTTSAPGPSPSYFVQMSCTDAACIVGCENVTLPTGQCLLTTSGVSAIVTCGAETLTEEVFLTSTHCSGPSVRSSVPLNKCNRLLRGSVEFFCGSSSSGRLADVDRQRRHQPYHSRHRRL
UniProt P55072, whole entry: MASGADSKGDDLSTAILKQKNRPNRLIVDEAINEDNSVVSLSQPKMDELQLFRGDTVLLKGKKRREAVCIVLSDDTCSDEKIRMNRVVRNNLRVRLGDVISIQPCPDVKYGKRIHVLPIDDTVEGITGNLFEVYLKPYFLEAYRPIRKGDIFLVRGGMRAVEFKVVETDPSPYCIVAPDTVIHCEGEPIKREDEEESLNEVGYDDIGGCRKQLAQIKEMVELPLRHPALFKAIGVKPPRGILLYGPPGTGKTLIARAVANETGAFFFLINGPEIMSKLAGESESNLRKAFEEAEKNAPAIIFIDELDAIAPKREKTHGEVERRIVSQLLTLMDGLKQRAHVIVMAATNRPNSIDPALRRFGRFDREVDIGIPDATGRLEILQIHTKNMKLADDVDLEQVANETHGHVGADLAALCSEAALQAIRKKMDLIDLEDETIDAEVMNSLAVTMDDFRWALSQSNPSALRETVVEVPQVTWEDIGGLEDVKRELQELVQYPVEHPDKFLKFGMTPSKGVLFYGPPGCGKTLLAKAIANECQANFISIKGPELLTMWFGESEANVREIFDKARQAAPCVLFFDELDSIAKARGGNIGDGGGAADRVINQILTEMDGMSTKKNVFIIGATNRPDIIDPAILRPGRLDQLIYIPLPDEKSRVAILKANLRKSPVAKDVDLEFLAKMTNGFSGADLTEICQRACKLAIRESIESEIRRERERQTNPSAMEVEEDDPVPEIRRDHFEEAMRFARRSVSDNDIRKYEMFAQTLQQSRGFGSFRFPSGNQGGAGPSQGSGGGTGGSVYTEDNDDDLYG
UniProt Q2M2I8, whole entry: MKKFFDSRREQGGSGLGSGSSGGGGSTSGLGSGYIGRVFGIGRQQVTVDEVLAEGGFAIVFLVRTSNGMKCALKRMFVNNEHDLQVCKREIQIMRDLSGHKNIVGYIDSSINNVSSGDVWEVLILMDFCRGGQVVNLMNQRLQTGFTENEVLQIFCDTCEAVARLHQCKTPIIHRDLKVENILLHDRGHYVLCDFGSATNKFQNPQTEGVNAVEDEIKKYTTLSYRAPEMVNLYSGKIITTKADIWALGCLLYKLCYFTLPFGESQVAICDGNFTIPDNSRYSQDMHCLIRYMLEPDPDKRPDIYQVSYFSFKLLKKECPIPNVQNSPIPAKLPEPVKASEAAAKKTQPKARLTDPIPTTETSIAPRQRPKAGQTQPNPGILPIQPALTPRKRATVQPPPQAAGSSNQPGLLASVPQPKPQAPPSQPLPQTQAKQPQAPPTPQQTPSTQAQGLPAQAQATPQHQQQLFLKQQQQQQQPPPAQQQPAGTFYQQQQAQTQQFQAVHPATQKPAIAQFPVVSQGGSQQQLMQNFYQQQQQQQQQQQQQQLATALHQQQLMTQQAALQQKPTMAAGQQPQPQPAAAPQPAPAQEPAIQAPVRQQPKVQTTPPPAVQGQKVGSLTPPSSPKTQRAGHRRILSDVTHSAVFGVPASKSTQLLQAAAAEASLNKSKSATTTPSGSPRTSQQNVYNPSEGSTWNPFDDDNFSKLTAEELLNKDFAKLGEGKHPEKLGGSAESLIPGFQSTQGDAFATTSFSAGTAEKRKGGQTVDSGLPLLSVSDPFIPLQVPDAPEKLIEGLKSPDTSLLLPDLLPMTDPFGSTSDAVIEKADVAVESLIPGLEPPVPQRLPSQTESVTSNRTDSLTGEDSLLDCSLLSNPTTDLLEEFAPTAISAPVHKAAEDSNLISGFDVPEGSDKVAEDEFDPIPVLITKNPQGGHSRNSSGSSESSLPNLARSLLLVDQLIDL

SMILES | tested on | assay | test system | setting | quantity | result
C[C@@H]1CN(C2CCC2)CC[C@H](O[C@H]2[C@@H](O)C[C@H](O[C@H]3[C@@H](O)C[C@H](O[C@H]4CC[C@@]5(C)[C@H](CC[C@@H]6[C@@H]5C[C@@H](O)[C@]5(C)[C@@H](C7=CC(=O)OC7)CC[C@]65O)C4)O[C@@H]3C)O[C@@H]2C)O1 | Sodium/potassium-transporting ATPase subunit alpha-3, with beta1 subunit (ATP1A3, Homo sapiens, UniProt P13637) | Na+/K+-ATPase activity, inhibitor | purified enzyme | – | IC50 | 0.068 ± 0.009 µM
O=C(Nc1ccc(-c2nc3ccccc3[nH]2)cc1)c1ccco1 | Tyrosine-protein kinase SYK, with FCER1G (SYK, Homo sapiens, UniProt P43405) | protein binding, inhibitor, TR-FRET | – | – | IC50 | 72.6 µM
COc1ccc(S(=O)(=O)N2CCN(c3ccc([N+](=O)[O-])c4ncccc34)CC2)cc1 | TLR8 (Homo sapiens, UniProt Q9NR97) | reporter gene, inhibitor, SEAP reporter | HEK-Blue TLR8 | – | IC50 | 5.18 ± 0.67 µM
COc1ccc2[nH]cc(/C=C/c3ccc([N+](=O)[O-])cc3F)c2c1 | APP amyloid-beta peptide | Aβ42 oligomerisation, ELISA | – | – | IC50 | > 20 µM
CN1CCN(Cc2ccc3c(c2)c(=O)c(C(N)=O)cn3-c2ccc(F)cc2)CC1 | Grm2 (Rattus norvegicus, UniProt P31421) | calcium mobilization, negative allosteric modulator | – | – | IC50 | 1.11 µM
COC(=O)/C(=C/c1c[nH]c2ccc(F)cc12)c1ccc(NS(C)(=O)=O)cc1 | APP amyloid-beta peptide | Aβ42 oligomerisation, ELISA | – | – | IC50 | > 20 µM
Cc1cc(SCc2sc(-c3cc(Cl)ccc3Cl)nc2C)ccc1OCC(=O)O | HEK293T | – | – | 18 h | CC50 | > 80 µM
COc1ccc2c(c1)c(CC(=O)NCCCCNC(=O)c1ccc(C3=c4cc5c6c(c4Oc4c3cc3c7c4CCCN7CCC3)CCC[N+]=6CCC5)c(C(=O)NC3CC(C)(C)N(O)C(C)(C)C3)c1)c(C)n2C(=O)c1ccc(Cl)cc1 | PTGS1 (Ovis aries, UniProt P05979) | enzyme activity, inhibitor, TLC | – | together with: [14C]arachidonic acid | IC50 | > 4 µM
Cc1ncsc1-c1ccc([C@H](C)NC(=O)[C@@H]2C[C@@H](O)CN2C(=O)[C@@H](NC(=O)CCCCCCC(=O)N2CCN(C[C@]3(C)CCC(c4ccc(Cl)cc4)=C(CN4CCN(c5ccc(C(=O)NS(=O)(=O)c6ccc(N[C@H](CCN7CCOCC7)CSc7ccccc7)c(S(=O)(=O)C(F)(F)F)c6)cc5)CC4)C3)CC2)C(C)(C)C)cc1 | – | – | STAM mice NASH-HCC model, liver | day 150, treated days 45-90 | NAFLD to HCC progression | no effect
COC(=O)[C@@]1(C)C=C(C(=O)Nc2cccc(C(=O)NC34CC(Nc5nccc(-c6cccnc6)n5)(C3)C4)c2)C(=O)CC1 | MAPK8 (Homo sapiens, UniProt P45983) | kinase activity, inhibitor | – | 8.363e-05 µM, together with: 10 mM GSH | remaining activity | 1.02 fraction of control
COC(=O)[C@@H]1C(C=Nc2cncnc2N)=Cc2cc3c(cc2[C@H]1c1cc(OC)c(OC)c(OC)c1)OCO3 | Tubulin alpha/beta heterodimer (Leishmania infantum, UniProt A0A381MCS3+A4HTR0) | tubulin polymerization, inhibitor | – | 37 °C, together with: tubulin 1.2 mg/mL | IC50 | 1.64 µM and 1.6 µM
O=C(O)CC[C@H](NC(=O)c1cc(C(=O)O)cc([C@H]2CCN[C@@H]2C(=O)O)c1)C(=O)O | Glutamate receptor ionotropic, NMDA 2B, with GluN1 (Grin2b, Rattus norvegicus, UniProt Q00960) | ion current, antagonist, two-electrode voltage clamp | Xenopus oocytes | GluN1/GluN2B, together with: glycine 100 µM and glutamate 1 µM | IC50 | 3.89 ± 0.22 µM
NS(=O)(=O)c1ccc(Cc2c(C3CCCC3)nn(-c3nc(C(=O)O)cs3)c2-c2ccccc2)cc1 | LDHA (Homo sapiens, UniProt P00338) | enzyme activity, inhibitor | – | – | IC50 | 6.7 µM
CCOc1ccc(S(=O)(=O)NC(=O)Cc2ccc(Cl)cc2)cc1Br | CGAS (Homo sapiens, UniProt Q8N884) | enzyme activity, inhibitor, Kinase-Glo ATP depletion | – | 25 °C, 100 nM enzyme | IC50 | 3.29 µM
CCn1c(-c2cc(NC(=O)c3cnccn3)n[nH]2)cc2ccc(OC)cc21 | GSK3B (Homo sapiens, UniProt P49841) | enzyme activity, inhibitor | – | – | IC50 | 8.6 ± 0.68 µM
Nc1ccc(C(=O)N2C[C@H](O)C[C@H]2C(=O)NCc2ccc(Cl)cc2)cc1 | von Hippel-Lindau disease tumor suppressor, with elongin B, C (VHL, Homo sapiens, UniProt P40337) | binding, fluorescence polarization | – | 10% DMSO, together with: FAM-HIF1α peptide tracer | IC50 | 29 ± 3 µM
CCOC(=O)C1=C(C)NC2=C(C(=O)CC(C)(C)C2)C1c1ccc(OCC(=O)NN=Cc2cccc(C=O)c2)cc1OCC(=O)NN=Cc1cccc(C=O)c1 (centres unmarked) | Bacillus subtilis | – | ATCC 6337 | concentration not given, 24 h | inhibition zone diameter | 4.3 ± 0.3 mm
Cc1cc(SCc2sc(-c3ccc(C#N)cc3Cl)nc2C)ccc1OCC(=O)O | HEK293T | – | – | 18 h | CC50 | > 100 µM
O=C(Nc1ccc(Cl)cc1)C(NS(=O)(=O)c1cccs1)c1ccc(F)cc1 (centres unmarked) | Uracil nucleotide/cysteinyl leukotriene receptor, long isoform (GPR17, Homo sapiens, UniProt Q13304) | calcium mobilization, antagonist | 1321-N1 | – | IC50 | 12.2 ± 0.79 µM
CC(C)CNC(=O)CSc1nc2ccc(NC(=O)CSc3ccccc3Cl)cc2s1 | Estrogen receptor (ESR1, Homo sapiens, UniProt P03372) | reporter gene, antagonist | HEC-1 transfected ERα luciferase reporter | – | IC50 | 20 to 50 µM
Cc1ccc(NC(=O)COC(=O)C(CC(C)C)N2C(=O)C3CC=CCC3C2=O)c(C)c1 (centres unmarked) | Cruzipain (Trypanosoma cruzi, UniProt P25779) | enzyme activity, inhibitor, fluorogenic substrate cleavage | – | 0.01% Triton X-100, together with: Z-FR-AMC | IC50 | 25 µM
CCOc1ccccc1Nc1nnc(SCC(=O)Nc2cc(F)ccc2F)s1 | co-cultured human PBMCs | – | MucilAir airway epithelium | 5 µM, 48 h, together with: anti-CD3/CD28 | IFN-γ secretion | 790 ± 25 pg/mL
O=C1OC2CC1N(C(=O)c1cc(Cc3n[nH]c(=O)c4ccccc34)ccc1F)C2 (centres unmarked) | PARP1 (Homo sapiens, UniProt P09874) | enzyme activity | – | experiment Exp2 | IC50 | 0.00053 µM
Nc1ncc(-c2ccc3ncnc(N4CCc5cc(F)c(Cl)cc54)c3c2)cn1 | – | – | CD1 mouse, plasma | oral, 100 mg/kg | AUC(0-t) | 26500 ng·h/mL
CC(C)N1CCN(CCNC2CCN(c3cccc(-c4cc5cc(C(F)(F)F)ccc5[nH]4)c3)CC2)CC1 | VCP (Homo sapiens, UniProt P55072) | ATPase activity, inhibitor, ADP-Glo | – | together with: ATP 100 µM | IC50 | 4.67 µM
CC(C)(C)c1nc(-c2cccc(Nc3ncnn4ccc(CN5CCC(N)CC5)c34)c2)no1 | AAK1 (Homo sapiens, UniProt Q2M2I8) | – | – | – | IC50 | 0.01 µM

A few entries again:
SMILES | tested on | assay | test system | setting | quantity | result
CC(C)(C)c1nc(-c2cccc(Nc3ncnn4ccc(CN5CCC(N)CC5)c34)c2)no1 | AAK1 (Homo sapiens, UniProt Q2M2I8) | – | – | – | IC50 | 0.01 µM
O=C1OC2CC1N(C(=O)c1cc(Cc3n[nH]c(=O)c4ccccc34)ccc1F)C2 (centres unmarked) | PARP1 (Homo sapiens, UniProt P09874) | enzyme activity | – | experiment Exp2 | IC50 | 0.00053 µM
